Experimental data collected from several papers.
Lines come from different studies, so protocols differ.

O=C(Nc1nc2cccc(-c3ccc(CN4CCS(=O)(=O)CC4)cc3)n2n1)C1CC1  patients with Dysgeusia (rheumatoid arthritis patients; oral, 100 mg twice daily, 4 weeks, TEAE regardless of relatedness): 8.3%
COc1cc(Nc2ncc3c(n2)-c2ccc(Cl)cc2C(c2c(F)cccc2OC)=NC3)ccc1C(=O)O  patients with adverse event (refers to: oral mucositis, grade 2; cancer patients, phase 1/2; dose not given, added: pembrolizumab): 13%
CNC(=O)c1ccc(-c2cnc3ncc(Cc4ccc5ncccc5c4)n3n2)cc1F  patients with adverse event (refers to: Constipation, all grades; gastric cancer patients; oral, 600 mg twice daily, expansion cohort, any causality): 33%
C=CC[C@@H]1/C=C(\C)C[C@H](C)C[C@H](OC)[C@H]2O[C@@](O)(C(=O)C(=O)N3CCCC[C@H]3C(=O)O[C@H](/C(C)=C/[C@@H]3CC[C@@H](O)[C@H](OC)C3)[C@H](C)[C@@H](O)CC1=O)[C@H](C)C[C@@H]2OC  patients with subtherapeutic C0 (kidney transplant recipients, whole blood; oral, dose not given, early post-transplant phase): 65%
Cc1cc(-c2nnc(N)nc2-c2ccc(F)cc2)cc(Cl)n1  patients with immune-mediated AE (refers to: Colitis; IO-naive mCRPC patients, male; oral, dose not given, treatment-related, grade 2): 0%
CC(C)C[C@H](NC(=O)[C@@H](Cc1c[nH]c2ccccc12)NC(=O)[C@H](Cc1ccc(O)cc1)NC(=O)[C@H](CO)NC(=O)[C@H](Cc1c[nH]c2ccccc12)NC(=O)[C@H](Cc1c[nH]cn1)NC(=O)[C@@H]1CCC(=O)N1)C(=O)N[C@@H](CCCNC(=N)N)C(=O)N1CCC[C@H]1C(=O)NCC(N)=O  patients with TEAEs (Chinese CPP children, overall; intramuscular, 22.5 mg, 12 months, day 1, month 6): 89.4%
C=CCN1CC(=O)N2[C@@H](Cc3ccc(O)cc3F)C(=O)N(Cc3cccc(N4CC(N5CCN(CC)CC5)C4)n3)C[C@@H]2N1C(=O)NCc1ccccc1  patients with ALT increased (advanced solid tumour patients; 160 mg twice daily, treatment-related, any grade): 50%
Cc1cc(NC2CCN(C(=O)OC3CCN(C(=O)/C=C/CN(C)C)C3)CC2)n2ncc(C(C)C)c2n1 (centres unmarked)  patients with adverse event (Phase I dose escalation CTCAE v4.0, refers to: Nausea; patients with advanced solid tumours; dose not given, all dose schedules any grade): 30%
